Results pooled from the literature.
Several values in a cell are separate wells, animals, samples, runs or records. Numbers after ± are the reported error.
NT5E membrane-bound form: 5'-nucleotidase, membrane-bound form (NT5E, Homo sapiens, UniProt P21589)
Sequence of UniProt P21589 (whole entry, looked up): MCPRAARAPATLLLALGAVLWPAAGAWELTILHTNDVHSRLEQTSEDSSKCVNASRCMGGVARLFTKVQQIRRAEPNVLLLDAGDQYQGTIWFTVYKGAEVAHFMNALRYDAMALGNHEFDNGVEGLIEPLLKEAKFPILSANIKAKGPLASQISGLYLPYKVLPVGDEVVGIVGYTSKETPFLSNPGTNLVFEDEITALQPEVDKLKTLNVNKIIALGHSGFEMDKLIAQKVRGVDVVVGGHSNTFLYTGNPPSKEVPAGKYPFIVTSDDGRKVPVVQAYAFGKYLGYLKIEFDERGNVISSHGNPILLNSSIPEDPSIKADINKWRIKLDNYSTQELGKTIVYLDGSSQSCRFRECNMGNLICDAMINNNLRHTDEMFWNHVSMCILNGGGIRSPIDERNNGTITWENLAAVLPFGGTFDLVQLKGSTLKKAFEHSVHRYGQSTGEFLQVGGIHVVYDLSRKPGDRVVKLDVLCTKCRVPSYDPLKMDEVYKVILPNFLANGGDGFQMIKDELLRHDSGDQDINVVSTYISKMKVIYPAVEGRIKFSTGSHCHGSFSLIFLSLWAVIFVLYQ
HTR6: 5-hydroxytryptamine receptor 6 (HTR6, Homo sapiens, UniProt P50406)
Sequence of UniProt P50406 (whole entry, looked up): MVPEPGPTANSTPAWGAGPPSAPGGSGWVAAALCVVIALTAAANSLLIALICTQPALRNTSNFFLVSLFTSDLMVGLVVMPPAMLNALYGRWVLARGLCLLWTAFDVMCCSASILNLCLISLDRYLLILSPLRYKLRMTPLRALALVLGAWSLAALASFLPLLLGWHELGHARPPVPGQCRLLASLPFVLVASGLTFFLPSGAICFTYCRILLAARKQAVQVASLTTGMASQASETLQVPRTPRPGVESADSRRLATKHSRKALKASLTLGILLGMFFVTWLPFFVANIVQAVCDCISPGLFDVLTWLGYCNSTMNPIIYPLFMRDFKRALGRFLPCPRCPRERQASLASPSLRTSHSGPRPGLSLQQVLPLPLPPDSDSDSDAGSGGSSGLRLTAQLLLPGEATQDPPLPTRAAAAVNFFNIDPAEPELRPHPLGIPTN
CSNK1E: Casein kinase I isoform epsilon (CSNK1E, Homo sapiens, UniProt P49674)
Sequence of UniProt P49674 (whole entry, looked up): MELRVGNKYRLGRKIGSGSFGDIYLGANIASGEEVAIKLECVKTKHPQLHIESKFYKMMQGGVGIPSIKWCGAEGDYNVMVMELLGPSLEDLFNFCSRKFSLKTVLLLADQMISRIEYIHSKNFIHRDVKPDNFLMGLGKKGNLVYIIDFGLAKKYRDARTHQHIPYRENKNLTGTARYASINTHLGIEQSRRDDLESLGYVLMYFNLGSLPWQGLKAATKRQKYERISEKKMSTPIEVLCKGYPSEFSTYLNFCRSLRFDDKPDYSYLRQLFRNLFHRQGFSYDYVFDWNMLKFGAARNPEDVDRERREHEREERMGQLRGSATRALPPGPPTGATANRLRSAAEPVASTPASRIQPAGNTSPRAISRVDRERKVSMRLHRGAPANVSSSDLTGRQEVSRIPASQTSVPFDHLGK
SIRT5: NAD-dependent protein deacylase sirtuin-5, mitochondrial (SIRT5, Homo sapiens, UniProt Q9NXA8)
Sequence of UniProt Q9NXA8 (whole entry, looked up): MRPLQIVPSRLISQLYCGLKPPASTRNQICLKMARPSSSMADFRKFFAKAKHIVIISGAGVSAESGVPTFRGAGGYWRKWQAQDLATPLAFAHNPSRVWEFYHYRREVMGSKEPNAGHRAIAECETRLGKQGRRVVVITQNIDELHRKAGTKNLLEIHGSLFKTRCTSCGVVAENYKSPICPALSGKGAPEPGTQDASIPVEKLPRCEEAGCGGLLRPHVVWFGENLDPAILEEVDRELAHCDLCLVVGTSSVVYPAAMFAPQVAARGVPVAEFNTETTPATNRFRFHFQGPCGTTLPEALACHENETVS
KCNJ2: Inward rectifier potassium channel 2 (KCNJ2, Homo sapiens, UniProt P63252)
Sequence of UniProt P63252 (whole entry, looked up): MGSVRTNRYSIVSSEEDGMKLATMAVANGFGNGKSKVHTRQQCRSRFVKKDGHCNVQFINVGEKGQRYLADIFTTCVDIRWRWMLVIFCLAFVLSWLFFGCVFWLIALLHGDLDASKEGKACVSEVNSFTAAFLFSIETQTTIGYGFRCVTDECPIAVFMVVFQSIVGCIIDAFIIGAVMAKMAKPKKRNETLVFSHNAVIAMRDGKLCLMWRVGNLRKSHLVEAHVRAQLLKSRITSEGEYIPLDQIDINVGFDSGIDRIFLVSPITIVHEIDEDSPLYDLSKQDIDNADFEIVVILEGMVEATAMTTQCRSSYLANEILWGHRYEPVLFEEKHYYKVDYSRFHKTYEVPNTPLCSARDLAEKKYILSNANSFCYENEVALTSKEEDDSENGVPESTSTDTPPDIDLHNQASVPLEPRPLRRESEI
Sequence of UniProt O00206 (whole entry, looked up): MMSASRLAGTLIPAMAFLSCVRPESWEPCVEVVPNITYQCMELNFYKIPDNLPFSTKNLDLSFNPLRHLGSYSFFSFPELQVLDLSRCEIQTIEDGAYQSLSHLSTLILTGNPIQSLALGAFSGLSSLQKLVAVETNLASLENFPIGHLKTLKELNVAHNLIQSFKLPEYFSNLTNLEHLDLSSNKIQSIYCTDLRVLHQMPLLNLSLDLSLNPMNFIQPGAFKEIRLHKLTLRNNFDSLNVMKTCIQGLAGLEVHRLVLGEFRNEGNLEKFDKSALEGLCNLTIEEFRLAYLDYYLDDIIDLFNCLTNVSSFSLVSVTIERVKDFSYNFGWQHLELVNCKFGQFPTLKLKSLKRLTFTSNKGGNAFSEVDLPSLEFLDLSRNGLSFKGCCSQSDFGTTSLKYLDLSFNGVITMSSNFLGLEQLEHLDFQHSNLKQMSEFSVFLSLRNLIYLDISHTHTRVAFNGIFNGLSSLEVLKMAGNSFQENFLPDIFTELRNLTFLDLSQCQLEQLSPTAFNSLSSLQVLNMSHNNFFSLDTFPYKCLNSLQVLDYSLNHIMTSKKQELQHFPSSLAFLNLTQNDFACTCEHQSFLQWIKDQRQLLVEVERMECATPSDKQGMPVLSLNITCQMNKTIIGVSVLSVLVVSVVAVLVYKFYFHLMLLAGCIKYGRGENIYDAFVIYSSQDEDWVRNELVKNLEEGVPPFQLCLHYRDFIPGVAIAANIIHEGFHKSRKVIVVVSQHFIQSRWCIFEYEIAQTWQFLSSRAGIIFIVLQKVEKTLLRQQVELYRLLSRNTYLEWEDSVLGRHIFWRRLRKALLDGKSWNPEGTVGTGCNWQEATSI
Sequence of UniProt P28472 (whole entry, looked up): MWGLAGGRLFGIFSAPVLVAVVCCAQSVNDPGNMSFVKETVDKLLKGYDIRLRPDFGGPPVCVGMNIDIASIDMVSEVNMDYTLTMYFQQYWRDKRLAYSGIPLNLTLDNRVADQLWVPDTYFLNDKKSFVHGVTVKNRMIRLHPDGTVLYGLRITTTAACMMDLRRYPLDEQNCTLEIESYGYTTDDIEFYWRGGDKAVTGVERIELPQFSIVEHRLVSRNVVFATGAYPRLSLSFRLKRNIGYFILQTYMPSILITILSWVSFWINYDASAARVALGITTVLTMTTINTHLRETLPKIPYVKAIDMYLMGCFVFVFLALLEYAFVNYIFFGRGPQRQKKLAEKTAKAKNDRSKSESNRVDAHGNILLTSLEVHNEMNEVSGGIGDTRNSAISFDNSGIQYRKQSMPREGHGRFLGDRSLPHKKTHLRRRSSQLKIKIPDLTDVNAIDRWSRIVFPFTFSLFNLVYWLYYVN
Sequence of UniProt P09238 (whole entry, looked up): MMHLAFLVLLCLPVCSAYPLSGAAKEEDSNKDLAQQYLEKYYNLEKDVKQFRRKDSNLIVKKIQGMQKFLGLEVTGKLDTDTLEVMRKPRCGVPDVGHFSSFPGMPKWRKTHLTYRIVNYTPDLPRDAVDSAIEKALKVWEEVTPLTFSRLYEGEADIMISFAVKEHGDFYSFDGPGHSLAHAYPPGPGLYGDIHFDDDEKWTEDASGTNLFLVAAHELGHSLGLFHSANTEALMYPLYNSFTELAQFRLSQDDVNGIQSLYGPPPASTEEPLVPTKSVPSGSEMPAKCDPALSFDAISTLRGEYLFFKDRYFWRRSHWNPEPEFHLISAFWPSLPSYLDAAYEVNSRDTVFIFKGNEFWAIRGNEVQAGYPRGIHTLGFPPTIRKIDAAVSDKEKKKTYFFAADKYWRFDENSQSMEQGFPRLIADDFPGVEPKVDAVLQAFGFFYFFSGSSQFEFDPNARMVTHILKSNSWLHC
Sequence of UniProt O75385 (whole entry, looked up): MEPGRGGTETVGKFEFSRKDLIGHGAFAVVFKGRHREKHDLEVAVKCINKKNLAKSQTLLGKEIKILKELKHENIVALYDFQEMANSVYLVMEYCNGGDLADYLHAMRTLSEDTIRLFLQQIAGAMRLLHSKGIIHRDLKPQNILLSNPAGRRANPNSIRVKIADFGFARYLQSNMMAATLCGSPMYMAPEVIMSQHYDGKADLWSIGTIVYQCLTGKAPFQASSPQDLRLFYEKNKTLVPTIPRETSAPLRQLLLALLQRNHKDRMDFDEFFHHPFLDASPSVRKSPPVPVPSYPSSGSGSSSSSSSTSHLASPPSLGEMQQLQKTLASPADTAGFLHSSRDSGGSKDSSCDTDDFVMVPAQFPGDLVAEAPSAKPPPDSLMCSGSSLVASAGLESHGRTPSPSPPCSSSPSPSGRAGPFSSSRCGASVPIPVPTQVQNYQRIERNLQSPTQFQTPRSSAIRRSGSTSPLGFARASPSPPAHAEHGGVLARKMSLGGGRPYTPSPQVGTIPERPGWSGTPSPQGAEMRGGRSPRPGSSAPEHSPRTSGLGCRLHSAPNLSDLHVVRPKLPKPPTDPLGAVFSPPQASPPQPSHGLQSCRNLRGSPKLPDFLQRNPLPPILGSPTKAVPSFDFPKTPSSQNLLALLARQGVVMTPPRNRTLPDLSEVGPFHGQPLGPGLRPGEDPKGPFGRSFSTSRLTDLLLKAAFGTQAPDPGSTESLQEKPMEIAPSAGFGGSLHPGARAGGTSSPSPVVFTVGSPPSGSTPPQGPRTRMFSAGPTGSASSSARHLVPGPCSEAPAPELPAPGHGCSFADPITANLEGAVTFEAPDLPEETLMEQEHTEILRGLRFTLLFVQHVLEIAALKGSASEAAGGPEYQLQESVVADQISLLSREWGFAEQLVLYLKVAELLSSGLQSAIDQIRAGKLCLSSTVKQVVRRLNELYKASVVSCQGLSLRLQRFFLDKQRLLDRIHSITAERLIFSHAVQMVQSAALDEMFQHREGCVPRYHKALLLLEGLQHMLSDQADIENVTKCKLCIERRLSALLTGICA

SMILES | target | assay | system | conditions | scale | inhibition
COCCOCCOCCNC(=O)CSc1nc(C)cc(-c2ccccc2)c1C#N | NT5E membrane-bound form | CD73 activity, inhibitor, malachite green phosphate | MDA-MB-231 | 100 µM, added: 200 µM AMP |  | 8 ± 9%
c1cncc(OC[C@H]2CN(CCN3CCc4ccccc43)CCO2)c1 | HTR6 | radioligand binding |  | concentration not given, added: [3H]LSD |  | 8.1%
Oc1ccc(-c2nc(-c3ccncc3)c(-c3ccc(F)cc3)[nH]2)cc1 | CSNK1E | inhibitor |  | 1 µM |  | 63%
CCOC(=O)C1=CCCC[C@H]1S(=O)(=O)Nc1ccc(F)cc1Cl | TLR4 (Homo sapiens, UniProt O00206) | LPS binding, antagonist, ELISA |  | 1 µg/mL, added: LPS | relative to: DMSO control | 47.7% and 44.3% and 43.9% and 44.6%
Cc1cc(-c2ccccc2)c2c(N)c(C(=O)Nc3ccon3)sc2n1 | NT5E membrane-bound form | CD73 activity, inhibitor, malachite green phosphate | MDA-MB-231 | 100 µM, added: 200 µM AMP |  | 25 ± 4%
O=c1[nH]c(-c2ccccc2)cnc1-c1ccccc1 | ADORA3 (Homo sapiens, UniProt P0DMS8) | [3H]NECA binding | HeLa-A3 membranes | 10 µM |  | 50 ± 6%
Clc1cccc(OC[C@@H]2CN(CCN3CCc4ccccc43)CCO2)c1 | HTR6 | radioligand binding |  | concentration not given, added: [3H]LSD |  | 29%
COc1ccc2c(c1OC)CN1CCc3cc4c(cc3C1=C2)OCO4 | HPGDS (Homo sapiens, UniProt O60760) | enzyme activity, inhibitor, fluorescence polarisation |  | 100 µM |  | 100%
Cn1c(CNC(=S)NCCCC[C@H](NS(=O)(=O)c2cccc(F)c2)C(=O)N[C@@H](Cc2c[nH]c3ccccc23)C(=O)NC2CCC2)n[nH]c1=S | SIRT5 | enzyme activity, inhibitor |  | 100 µM |  | 14%
Cc1ncccc1OC[C@@H]1CN(CCN2CCc3ccccc32)CCO1 | HTR6 | radioligand binding |  | concentration not given, added: [3H]LSD |  | 7.6%
COc1cc(Cl)c(C(=O)N[C@@H](CN[C@H]2CC[C@@H](N)CC2)Cc2ccc(C#N)cc2)cc1-c1ccc(CN[C@H](C)c2ccc(C)cc2)o1 | HTR6 | agonist response, antagonist | human cells | 10 µM, 5-HT6 antagonist |  | 6%
Cc1ccc(C(=O)Nc2ccc3ccccc3c2)o1 | KCNJ2 | ion current, inhibitor, whole-cell patch clamp |  | 10 µM |  | 9.96% and 2.35% and 4.1% and 4.28% and 3.13%
NC/C(=C\F)COc1cccc(Cn2c(=S)[nH]c(=O)c3[nH]cnc32)c1 | Amine oxidase copper-containing 3 (Canis lupus familiaris, UniProt A0A8I3MYY3) | inhibitor | dog adipose tissue | 0.0002 µM |  | 4.51%
COc1cc2c(cc1OC)CC(=O)N(CCCN(C)C[C@H]1Cc3cc(OC)c(OC)cc31)CC2 | Potassium/sodium hyperpolarization-activated cyclic nucleotide-gated channel 1 (Homo sapiens, UniProt O60741) | ion current, antagonist, whole-cell patch clamp | HEK293T cells | 50 µM |  | 93.15 ± 0.02%
Cc1nn(-c2nc3c(F)cc(F)cc3s2)c(O)c1C(c1cccc(C(F)(F)F)c1)c1c(C)nn(-c2nc3c(F)cc(F)cc3s2)c1O | Cyclic GMP-AMP synthase, catalytic domain; with DNA (CGAS, Homo sapiens, UniProt Q8N884) | cGAS phase separation, inhibitor |  | 50 µM |  | 95.6%
CC(C)c1noc2ncc(C(=O)c3ccccc3O)cc12 | PACC1 (Homo sapiens, UniProt Q9H813) | ion current, whole-cell patch-clamp |  | 10 µM |  | 1.79%
Fc1ccc(-c2c(-c3ccncc3)ncn2-c2ccc3ccccc3c2)cc1 | CSNK1E | inhibitor |  | 1 µM |  | 59%
Cc1cc(C(F)(F)F)c2c(N)c(C(=O)Nc3nccs3)sc2n1 | NT5E membrane-bound form | CD73 activity, inhibitor, malachite green phosphate | MDA-MB-231 | 100 µM, added: 200 µM AMP |  | 9 ± 6%
O=C(CN1CCO[C@H](COc2cccnc2)C1)N1CCc2ccccc21 | HTR6 | radioligand binding |  | concentration not given, added: [3H]LSD |  | 16.6%
Cc1cc2c(cc1N1C(=O)c3cccc4c(CCCO)ccc(c34)C1=O)n(C)c(=O)n2C (racemic) | CECR2 (Homo sapiens, UniProt Q9BXF3) | binding, BROMOscan binding |  | 1000 nM |  | 15%
CNc1cc(Oc2cc(C(=O)Nc3cc(N4CCN(C)CC4)cc(C(F)(F)F)c3)ccc2C)ncn1 | CDK11B (Homo sapiens, UniProt P21127) | kinase activity |  | 1 µM |  | -15%
CN1CCN(c2cc(-c3ccncc3)c(-c3ccc4ccccc4c3)nn2)CC1 | CCR1 (Homo sapiens, UniProt P32246) | antagonist, FLIPR |  | 10 µM |  | 4.3%

SMILES | target | assay | system | conditions | scale | inhibition
O=C(c1ccc(F)cc1)N(Cc1ccccc1)C1CCCCC1 | Grin1 (Rattus norvegicus, UniProt P35439) |  |  | 10 µM |  | 4%
COc1nc(NCc2cn(-c3ccc(C(=O)Nc4ccccc4)cc3)nn2)nc(OC)n1 | Stromelysin-2 (Homo sapiens, UniProt P09238) | inhibitor |  | 0.1 µM |  | 0.695 ± 0.09%
Clc1cncc(OC[C@H]2CN(CCN3CCc4ccccc43)CCO2)c1 | HTR6 | radioligand binding |  | concentration not given, added: [3H]LSD |  | 8.5%
CC[C@@H]1[C@H](F)C(=O)N[C@@H]1COc1nccc2cc(C(N)=O)c(OC)cc12 | ULK1 (Homo sapiens, UniProt O75385) | ATP-site probe binding, ActivX profiling | THP-1 cell lysate | 0.2 mM, Lys1 site |  | 6.2%
O=C(C#Cc1cn(Cc2ccccc2)c(=O)[nH]c1=O)NCc1cccc(F)c1 | Collagenase 3 (MMP13, Homo sapiens, UniProt P45452) |  |  | 6.5 µM |  | 32 ± 4%
O=C(Nc1cccc2c(=O)cc(-c3nnn[nH]3)oc12)c1ccc(OCCCCc2ccccc2)cc1 | Volume-regulated anion channel subunit LRRC8C, part LRRC8A IL1 chimera (LRRC8C, Homo sapiens, UniProt Q8TDW0, Y126F) | ion current, inhibitor, whole-cell patch clamp | HCT LRRC8-/- cells | 10 µM, +100 mV |  | 95.7% and 90.2% and 88.8% and 92.8%
O=C1NC(=O)C2(CCc3ccccc32)N1 (centres unmarked) | GABA-A receptor alpha-1/beta-3, with gamma-2 subunit (GABRA1/GABRB3, Homo sapiens, UniProt P14867+P28472) | reversal, anesthetic-enhanced desensitization |  | concentration not given |  | 30%
COc1cccc(OC[C@H]2CN(CCN3CCc4ccccc43)CCO2)c1 | HTR6 | radioligand binding |  | concentration not given, added: [3H]LSD |  | 11.6%
Nc1c(C(=O)Nc2nccs2)sc2nc(-c3ccccc3)cc(C(F)(F)F)c12 | NT5E membrane-bound form | CD73 activity, inhibitor, malachite green phosphate | MDA-MB-231 | 100 µM, added: 200 µM AMP |  | 16 ± 7%
CNc1cccc2cc(C(=O)Nc3ccc(C(=O)O)cc3)c(=O)[nH]c12 | PDGFR | kinase activity, inhibitor |  | 10 µM |  | 9.7%
COc1cc2c3c(c1OC)-c1cc4c(cc1CC3N(C)CC2c1ccccc1)OCO4 (centres unmarked) | sigma-2 | binding, radioligand binding |  | concentration not given |  | < 50%
COc1cccc(F)c1Cn1cnc(-c2ccc(F)cc2)c1-c1ccncc1 | CSNK1E | inhibitor |  | 1 µM |  | 82%
Cn1cc(-c2cnc3ccc(NC(=O)Nc4ccc(F)c(Br)c4)cc3n2)cn1 | MAP3K7 (Homo sapiens, UniProt O43318) | kinase binding, KiNativ profiling, item: Lys2 peptide | PANC-1 lysate | 2.5 µM |  | 7.7%
C=C(C)[C@@H]1CC[C@]2(C)CC[C@]3(C)[C@H](CC[C@@H]4[C@@]5(C)CC[C@H](O)C(C)(C)[C@@H]5CC[C@]43C)[C@@H]12 | XDH (Bos taurus, UniProt P80457) | enzyme activity |  | 25 µg/mL, bovine |  | < 0%
CCCCCCCCCCCCNC(=S)NCCCC[C@H](NS(C)(=O)=O)C(=O)N[C@@H](C)C(=O)N[C@@H](CCCNC(=N)N)C(N)=O | SIRT5 | enzyme activity, inhibitor |  | 100 µM |  | < 5%
CCN(Cc1ccccc1C(F)(F)F)C(=O)C1CCN(S(=O)(=O)c2ccc3[nH]ncc3c2)CC1 | rat L-type calcium channel | radioligand binding |  | 10 µM, dihydropyridine site |  | 17%
COC(=O)c1ccc(NC(=O)CCSc2nc(C)cc(C)c2C#N)cc1 | NT5E membrane-bound form | CD73 activity, inhibitor, malachite green phosphate | MDA-MB-231 | 100 µM, added: 200 µM AMP |  | 24 ± 8%
O=C(NO)c1ccc(CN2CCCCc3ccccc32)c(F)c1 | HTR6 | radioligand binding, radioligand displacement |  | 10 µM, mean of replicates |  | 27.8%
CCOC(=O)c1ccc(NC(=O)CCSc2nc(C)cc(C)c2C#N)cc1 | NT5E membrane-bound form | CD73 activity, inhibitor, malachite green phosphate | MDA-MB-231 | 100 µM, added: 200 µM AMP |  | 24 ± 2%
Cc1ccc2c(c1)C(=O)[C@]1(O)CCN(c3ccc4nc(C)ccc4c3)C1=N2.Cl | KCNJ2 |  |  | concentration not given |  | < 25%
Cc1cc(C)c(C#N)c(SCC(=O)NCc2ccccc2)n1 | NT5E membrane-bound form | CD73 activity, inhibitor, malachite green phosphate | MDA-MB-231 | 100 µM, added: 200 µM AMP |  | 3 ± 6%
NS(=O)(=O)CCNC(=S)NCCCC[C@H](NS(=O)(=O)c1cccc(F)c1)C(=O)N[C@@H](Cc1c[nH]c2ccccc12)C(=O)NC1CCC1 | SIRT5 | enzyme activity, inhibitor |  | 100 µM |  | < 0%

A few entries again:
SMILES | target | assay | system | conditions | scale | inhibition
CC[C@@H]1[C@H](F)C(=O)N[C@@H]1COc1nccc2cc(C(N)=O)c(OC)cc12 | ULK1 (Homo sapiens, UniProt O75385) | ATP-site probe binding, ActivX profiling | THP-1 cell lysate | 0.2 mM, Lys1 site |  | 6.2%
Fc1ccc(-c2c(-c3ccncc3)ncn2-c2ccc3ccccc3c2)cc1 | CSNK1E | inhibitor |  | 1 µM |  | 59%
Cn1c(CNC(=S)NCCCC[C@H](NS(=O)(=O)c2cccc(F)c2)C(=O)N[C@@H](Cc2c[nH]c3ccccc23)C(=O)NC2CCC2)n[nH]c1=S | SIRT5 | enzyme activity, inhibitor |  | 100 µM |  | 14%
